# Results gathered from unrelated publications.
# Each line is one published result; not all experiments were run side by side.
SMILES,assay,system,setting,quantity,value
CNC(=O)c1ccc(-c2cnc3ncc(Cc4ccc5ncccc5c4)n3n2)cc1F,"phase 1 clinical trial, refers to: blood creatinine increased",all expansion cohorts,"oral, 600 mg twice daily, grade 3 or 4",adverse event incidence,3%
Cc1cc(Nc2ccc(S(F)(F)(F)(F)F)cc2)n2nc(C(C)(F)F)nc2n1,,Plasmodium vivax malaria patients,"oral, 600 mg",adverse event abdominal pain,0%
FC(F)(F)c1ccc(CNc2ccc(Cc3c[nH]c4ncc(Cl)cc34)cn2)cn1,refers to: Pyrexia,patients with advanced solid tumours,"oral, dose not given, grade 1 and 2, possibly related to drug",adverse event incidence,11%
Cc1c(Cl)c(C)[n+]([O-])c(Cl)c1-c1noc(-c2cc(O)c(O)c([N+](=O)[O-])c2)n1,refers to: Belching,healthy Chinese subjects,"oral, 50 mg, 20 days",adverse drug reaction incidence,0%
Cc1ccc(Sc2ccccc2N2CCNCC2)c(C)c1,any TEAE,healthy adult men,"oral, 10 mg single dose, 8 nights, fed",adverse event incidence,10.5%
O=C1CCc2ccc(OCCCCN3CCN(c4cccc(Cl)c4Cl)CC3)cc2N1,refers to: Hypertension,"genotyped patients, CYP2D6 intermediate metabolizers","dose not given, long-acting oral or depot",adverse event incidence,1.8%
CC(=O)O[C@H]1C(=O)[C@@]2(C)[C@H]([C@H](OC(=O)c3ccccc3)[C@]3(O)C[C@H](OC(=O)[C@H](O)[C@@H](NC(=O)c4ccccc4)c4ccccc4)C(C)=C1C3(C)C)[C@]1(OC(C)=O)CO[C@@H]1C[C@@H]2O,refers to: neutropenia,patients with advanced solid tumours,"intravenous, dose not given, phase Ib, related to compound","adverse events, all grades",43%
Cc1c(C(=O)O)ccc2c3n(nc12)[C@@H]1[C@H](C3)N(CC2CC2)[C@@]2(C(=O)Nc3cc(Cl)ccc32)[C@H]1c1cccc(Cl)c1F,"phase Ia trial, refers to: Headache",cancer patients,"oral, dose not given, all patients all grades",adverse event incidence,16.7%
NCCONC(=O)[C@@H]1CC[C@@H]2CN1C(=O)N2OS(=O)(=O)O,refers to: leading to withdrawal,healthy Chinese men,"intravenous, 1 g, treatment-emergent",adverse event incidence,0%

# Excerpt of the above:
SMILES,assay,system,setting,quantity,value
Cc1c(Cl)c(C)[n+]([O-])c(Cl)c1-c1noc(-c2cc(O)c(O)c([N+](=O)[O-])c2)n1,refers to: Belching,healthy Chinese subjects,"oral, 50 mg, 20 days",adverse drug reaction incidence,0%
